{"data": "Published values gathered from unrelated publications", "note": "Each line is one published result; not all experiments were run side by side. ± marks the error that the study gave."}
{"Structure (SMILES)": "CC1(C)C(=O)N(c2ccc(C#N)c(C(F)(F)F)c2)C(=S)N1c1ccc(C(=O)O)c(F)c1", "test system": "human, male, plasma", "conditions": "oral, 160 mg, single dose, after high-fat meal", "Cmax [ng/mL]": "130 ± 48.6"}
{"Structure (SMILES)": "CSCC[C@H](NC(=O)[C@H](CO)NC(=O)[C@H](Cc1ccc(O)cc1)NC(=O)[C@@H](N)CO)C(=O)N[C@@H](CCC(=O)O)C(=O)N[C@@H](Cc1c[nH]cn1)C(=O)N[C@@H](Cc1ccccc1)C(=O)N[C@@H](CCCNC(=N)N)C(=O)N[C@@H](Cc1c[nH]c2ccccc12)C(=O)NCC(=O)N[C@@H](CCCCN)C(=O)N1CCC[C@H]1C(=O)N[C@H](C(=O)NCC(=O)N[C@@H](CCCCN)C(=O)N[C@@H](CCCCN)C(=O)N[C@@H](CCCNC(=N)N)C(=O)N[C@@H](CCCNC(=N)N)C(=O)N1CCC[C@H]1C(=O)N[C@H](C(=O)N[C@@H](CCCCN)C(=O)N[C@H](C(=O)N[C@@H](Cc1ccc(O)cc1)C(=O)N1CCC[C@H]1C(=O)N[C@@H](CC(=O)O)C(=O)NCC(=O)N[C@@H](C)C(=O)N[C@@H](CCC(=O)O)C(=O)N[C@@H](CC(=O)O)C(=O)N[C@@H](CCC(=O)O)C(=O)N[C@@H](CC(C)C)C(=O)N[C@@H](C)C(=O)N[C@@H](CCC(=O)O)C(=O)N[C@@H](C)C(=O)N[C@@H](Cc1ccccc1)C(=O)N1CCC[C@H]1C(=O)N[C@@H](CC(C)C)C(=O)N[C@@H](CCC(=O)O)C(=O)N[C@@H](Cc1ccccc1)C(=O)O)C(C)C)C(C)C)C(C)C", "test system": "healthy human subjects, plasma", "conditions": "subcutaneous, 80 IU three times weekly, day 1, repository corticotropin injection", "Cmax [ng/mL]": 0.375}
{"Structure (SMILES)": "CC[C@H](C)C(=O)N1CCC(NC(=O)Nc2ccc(OC(F)(F)F)c(F)c2)CC1", "test system": "human", "conditions": "oral, 8 mg, fed, geometric LS mean", "Cmax [ng/mL]": 58.6}
{"Structure (SMILES)": "CC(C)C[C@@H](NC(=O)[C@@H](Cc1ccccc1)NC(=O)[C@H](N)Cc1ccccc1)C(=O)N[C@H](CCCCN)C(=O)N1CCC(N)(C(=O)O)CC1", "test system": "human, plasma", "conditions": "intravenous, 15 µg/kg", "Cmax [ng/mL]": 169}
{"Structure (SMILES)": "CC(C)C[C@H](NC(=O)[C@H](CCCCN)NC(=O)[C@H](C)NC(=O)[C@@H]1CCCN1C(=O)[C@@H]1CCCN1C(=O)[C@H](CCCCN)NC(=O)[C@H](CCCCN)NC(=O)[C@H](CO)NC(=O)[C@H](CCC(=O)O)NC(=O)[C@H](CCCCN)NC(=O)[C@H](CCCNC(=N)N)NC(=O)[C@H](CCC(N)=O)NC(=O)[C@H](CCC(N)=O)NC(=O)[C@@H](NC(=O)[C@H](CCCNC(=N)N)NC(=O)[C@H](CCC(N)=O)NC(=O)[C@H](Cc1cnc[nH]1)NC(=O)[C@H](CCC(=O)O)NC(=O)[C@@H]1CCCN1C(=O)[C@H](CO)NC(=O)[C@H](CC(C)C)NC(=O)[C@H](Cc1ccccc1)NC(=O)[C@H](CO)NC(=O)[C@H](CO)NC(=O)CN)C(C)C)C(=O)N[C@@H](CCC(N)=O)C(=O)N1CCC[C@H]1C(=O)N[C@@H](CCCNC(=N)N)C(=O)O", "test": "ELISA", "test system": "healthy humans, both sexes, plasma", "conditions": "intravenous infusion, 4 µg/kg/h, 210 min", "Cmax [ng/mL]": "15.9 ± 4.91"}
{"Structure (SMILES)": "CC(=CCC(O)C(C)=Cc1csc(C)n1)CC=CC(C)C(O)C(C)C(=O)C(C)(C)C(O)CC(=O)O (centres unmarked)", "test system": "human, plasma", "conditions": "intravenous infusion, 20.0 mg/m2 KOS-1584, 3 h infusion, cycle 1", "Cmax [ng/mL]": "11.8 ± 9.15"}
{"Structure (SMILES)": "CCCCCCCC(=O)OC[C@H](NC(=O)[C@H](CO)NC(=O)CN)C(=O)N[C@@H](Cc1ccccc1)C(=O)N[C@@H](CC(C)C)C(=O)N[C@@H](CO)C(=O)N1CCC[C@H]1C(=O)N[C@@H](CCC(=O)O)C(=O)N[C@@H](Cc1cnc[nH]1)C(=O)N[C@@H](CCC(N)=O)C(=O)N[C@@H](CCCNC(=N)N)C(=O)N[C@H](C(=O)N[C@@H](CCC(N)=O)C(=O)N[C@@H](CCC(N)=O)C(=O)N[C@@H](CCCNC(=N)N)C(=O)N[C@@H](CCCCN)C(=O)N[C@@H](CCC(=O)O)C(=O)N[C@@H](CO)C(=O)N[C@@H](CCCCN)C(=O)N[C@@H](CCCCN)C(=O)N1CCC[C@H]1C(=O)N1CCC[C@H]1C(=O)N[C@@H](C)C(=O)N[C@@H](CCCCN)C(=O)N[C@@H](CC(C)C)C(=O)N[C@@H](CCC(N)=O)C(=O)N1CCC[C@H]1C(=O)N[C@@H](CCCNC(=N)N)C(=O)O)C(C)C", "test": "two-site ELISA", "test system": "human, plasma", "conditions": "intravenous infusion, 3 µg/kg/h, 65 min infusion", "Cmax [ng/mL]": "11.7 ± 2.4"}
{"Structure (SMILES)": "CCc1c2c(nc3ccc(OC4OC(C(=O)O)C(O)C(O)C4O)cc13)-c1cc3c(c(=O)n1C2)COC(=O)C3(O)CC (centres unmarked)", "test system": "human patients, plasma", "conditions": "intravenous, 12 mg/m2 of parent drug", "Cmax [ng/mL]": 10}
{"note": "A few entries again:"}
{"Structure (SMILES)": "CC1(C)C(=O)N(c2ccc(C#N)c(C(F)(F)F)c2)C(=S)N1c1ccc(C(=O)O)c(F)c1", "test system": "human, male, plasma", "conditions": "oral, 160 mg, single dose, after high-fat meal", "Cmax [ng/mL]": "130 ± 48.6"}
